Published values from different studies.
Parts stem from different laboratories: compare values within a part only.

Block 1 — technique: protein binding microarray; molecule type: double-stranded DNA, one strand shown; matrix: in vitro; concentration: not given; reference: not given; direction: higher = stronger binding; quantity: E-score
Target: Histone acetyltransferase KAT6A, winged helix 1, GST fusion (KAT6A, Homo sapiens, UniProt Q92794, residues 1-85)
Notes: 8-mer, flanks averaged, mean of 2 arrays, mostly near background
Target sequence (chain): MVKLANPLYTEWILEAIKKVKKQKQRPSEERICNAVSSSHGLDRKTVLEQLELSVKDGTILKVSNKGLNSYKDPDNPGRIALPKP
Sequence = AAGGACTG; value = -0.246
Sequence = CGTATTCC; value = 0.0292
Sequence = AAACCACT; value = -0.00834
Sequence = TGTGTAAA; value = -0.108
Sequence = TCGAGAAA; value = -0.0433
Sequence = AGTTCTGA; value = -0.216
Sequence = TGGCCGAA; value = 0.0739
Sequence = CACCGGTC; value = 0.187
Sequence = TGAGGCAA; value = -0.187
Sequence = CTTTCGGA; value = -0.0508
Sequence = AGCTGATA; value = -0.218
Sequence = GTTTTAAA; value = -0.147
Sequence = ACCCTATG; value = -0.157
Sequence = ACGCTCAG; value = 0.0936
Sequence = GTCCACAA; value = -0.292
Sequence = AAAGAACC; value = -0.0368
Sequence = CGACCAAA; value = -0.165
Sequence = CACAACGG; value = 0.199
Sequence = CTGCCCGA; value = 0.0293
Sequence = ACGCACCC; value = 0.222
Sequence = CGAAAATC; value = -0.18
Sequence = CTGGGCCA; value = -0.168
Sequence = GGGGGTTA; value = -0.0357
Sequence = ACCGCAGC; value = 0.175
Sequence = CCTTTCAC; value = 0.0111

Block 2 — technique: RNA Bind-n-Seq; molecule type: RNA; matrix: in vitro; concentration: 200 nM; notes: whole 134-nt RNA, ends assumed; added: 150 mM KCl; reference: input library; direction: higher = stronger binding; quantity: log2 enrichment
Target: Ras GTPase-activating protein-binding protein 1, full length (G3BP1, Homo sapiens, UniProt Q13283)
UniProt Q13283, sequence (whole entry, looked up): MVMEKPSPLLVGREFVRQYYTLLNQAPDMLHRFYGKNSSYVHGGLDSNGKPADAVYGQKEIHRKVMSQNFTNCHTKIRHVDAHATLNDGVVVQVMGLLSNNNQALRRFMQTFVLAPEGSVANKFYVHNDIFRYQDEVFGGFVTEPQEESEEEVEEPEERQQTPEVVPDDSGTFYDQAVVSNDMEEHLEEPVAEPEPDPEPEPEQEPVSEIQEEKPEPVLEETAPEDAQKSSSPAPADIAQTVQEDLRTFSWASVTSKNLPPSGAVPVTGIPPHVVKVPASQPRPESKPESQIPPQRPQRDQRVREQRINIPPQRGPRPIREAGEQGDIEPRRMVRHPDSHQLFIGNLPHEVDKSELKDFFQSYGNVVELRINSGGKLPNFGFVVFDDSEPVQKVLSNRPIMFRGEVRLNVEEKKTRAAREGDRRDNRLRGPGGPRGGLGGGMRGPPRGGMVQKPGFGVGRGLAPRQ
Sequence = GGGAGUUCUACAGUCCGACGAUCGCAGGAAGUAAAAACAAAUGGAAAUGCUUCGGAUAGUGGCAGGGGUGGGGGUUCCUAAGGAAAGGGUGGGAUGGGAGUGGGUAAAGAGUUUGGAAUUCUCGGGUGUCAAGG; value = 1.44
Sequence = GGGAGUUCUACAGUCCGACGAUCCCUCAAGUCCUGUGCUACACAUCGUAUGUACCGAAUCGGAAGGAAGGAAGGGAAAGUAUUAUGUUACGCCGUUCGGAUCUGCACUUCCAGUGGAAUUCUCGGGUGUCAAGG; value = 0.0354
Sequence = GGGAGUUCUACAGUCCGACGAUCCCUCAAGUCCUGUGCUACACAUCGUAUGUACCGAAUCGGUGGUUUGGAAAGGAAAGUAUUAUGUUACGCCGUUCGGAUCUGCACUUCCAGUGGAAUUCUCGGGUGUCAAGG; value = -0.109
Sequence = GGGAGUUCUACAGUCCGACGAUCCACAGACAACACGCACCCACACAGACACAGAGGGAAGGGGUUGGGAUGGGGACAGGGUGCACAGCACGGCGGGGUAGGACCCCAGCCCCUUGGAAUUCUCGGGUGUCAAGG; value = 1.8
Sequence = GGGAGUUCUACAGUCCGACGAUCCUCAAGUCCUGUGCUACACAUCGUAUGUACCGAAUCGGGCCGGGCCGGGCCGGAAAGUAUUAUGUUACGCCGUUCGGAUCUGCACUUCCAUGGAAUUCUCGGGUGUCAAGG; value = -0.244
Sequence = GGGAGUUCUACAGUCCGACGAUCACCAUGCAGGUGGGCAUCUUUGGGAAGUGGGGCAAGGGGGGGAUAGGGAGGGGGGUAACACUUUGGGAACAAGUGGUCCCAGGUCGUUUCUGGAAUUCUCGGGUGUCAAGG; value = 1.25
Sequence = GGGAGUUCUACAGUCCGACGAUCAAGUCCUGUGCUACACAUCGUAUGUACCGAAUCGGUUUGGAAAAAAAGGAAAAAGGAAAGUAUUAUGUUACGCCGUUCGGAUCUGCACUUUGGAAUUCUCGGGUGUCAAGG; value = -1.13
Sequence = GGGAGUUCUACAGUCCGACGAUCCUGUGCUACACAUCGUAUGUACCGAAUCGGGGUUUUUUGGGGUUUUUUGGGGUUUUUUGGGGAAAGUAUUAUGUUACGCCGUUCGGAUCUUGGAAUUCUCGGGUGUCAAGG; value = -0.41
Sequence = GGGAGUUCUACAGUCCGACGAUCCACAGACAACACGCACCCACACAGACACAGAGGGAAGGGGAUGGGAUGGGGACAGGGUGCACAGCAGGGCGGGGUAGGACCCCAGCCCCUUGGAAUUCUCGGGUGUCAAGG; value = 1.86

Block 3 — technique: RNA Bind-n-Seq; molecule type: RNA; matrix: in vitro; concentration: 365 nM; reference: no-protein control; direction: higher = stronger binding; quantity: RBNS enrichment (R)
Target: RNA binding protein fox-1 homolog 2, RRM domain, GST-SBP tag (RBFOX2, Homo sapiens, UniProt O43251-10, residues 100-194)
Notes: natural RNA segment, single round, ends assumed
Residues (chain): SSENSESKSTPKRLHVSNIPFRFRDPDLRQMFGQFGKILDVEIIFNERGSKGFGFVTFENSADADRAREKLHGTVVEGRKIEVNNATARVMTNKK
Sequence = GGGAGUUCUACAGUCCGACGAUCAAAGUAGAAAAGGCAGGUGGUGGGCGGCUGGCAGGGAGUGCGGGUCCCCGCCCCUCUUCAGUCCUGCCCUCCCCUCCUCAGUCCUGCCCACCCCGUGCAGCCCAUGCUGAUGGAAUUCUCGGGUGCCAA; value = 0.575
Sequence = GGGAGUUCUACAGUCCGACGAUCGCCCUGUCUACUUGGGCACCCCCACCACCUGUUAGCUGUGGUUGUGCACUGUCUUUUGUAGCUCUGGACUGGAGGGGUAGAUGGGGAGUCAAUUACCCAUCACAUAAAUAUGGAAUUCUCGGGUGCCAA; value = 1.19
Sequence = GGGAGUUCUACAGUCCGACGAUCGGCUUAAAUUGGGAGUCAAGGACUAUAGUCAGGAGACCCCCAGGUACCUGGUUCAGAGCAGUCCGGGAUGAUAGGACGAGAUCCUAAAGUUCUUUCAGGGAGCUCUGCCAUGGAAUUCUCGGGUGCCAA; value = 0.288
Sequence = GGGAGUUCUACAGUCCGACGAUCAUAGCACUGAAGUUGCAACUUUUUUCUUGUAAUUGUUUUGCUACUAAGAUAAUUUCAGAAGUUCAGUCUAUUUUUUCAGCGGAUACUGCCGCCACCAAGAAUCCAAAACCUGGAAUUCUCGGGUGCCAA; value = 1.35
Sequence = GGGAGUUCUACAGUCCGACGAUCCCUUAAGCCCUUCUGGCUUCGUUUAUGGUCUUCAUUAAAAGUAUAAGCCUAACUUUGUCGCUAGUCCUAAGGAGAAACCUUUAACCACAAAGUUUUUAUCAUUGAAGACAUGGAAUUCUCGGGUGCCAA; value = 0.361
Sequence = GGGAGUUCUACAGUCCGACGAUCCAGAGGGGGCCAAGGCCUGUUUCAAAAACAACAACCAAGACAAGCAAAACCAGGUGUUGCUUUGCUAUGUUCCUGUACACUGUGGGAGAGGUAAUAGCAUCUGUGGGACAUGGAAUUCUCGGGUGCCAA; value = 0.813
Sequence = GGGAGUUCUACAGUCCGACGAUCUCAUCCCUGCCACCACCAUUGGUCUCUGCCAGCUGAAGUGCCCUAUUGCCCCCGCACAGCACCAUCUCAGCAUUCCACAGGGGACUCUGGAAAGGGUGCGGAAGGUAGGCUGGAAUUCUCGGGUGCCAA; value = 0.798
Sequence = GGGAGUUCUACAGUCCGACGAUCCGAGCGUUUGAGAAGAGGGCAUGGCGCUGGAGUGAGAUGGGAUUUGGCGUCUCGUUUUUGGCUAAUUGAUUGUCAUUGGCUUUUUCCAUAAAGUUUAGAAAUCGUUCAGUUGGAAUUCUCGGGUGCCAA; value = 0.559

Block 4 — technique: protein-binding microarray; molecule type: double-stranded DNA, one strand shown; matrix: in vitro; concentration: 2200 nM top; notes: 60-bp whole probe; added: salmon DNA 0.4 mg/ml; reference: random background probes; direction: higher = stronger binding; quantity: fitted relative affinity; shared flanks, not repeated: GCCTAGCAC … GTCTTGATTCGCTTGACGCTGCTG
Target: Interferon regulatory factor 7, full length, phosphomimetic (IRF7, Homo sapiens, UniProt Q92985, residues 1-503, S471D/S472D/S475D/S476D/S477D/S483D/S484D/S487D)
Target sequence (chain): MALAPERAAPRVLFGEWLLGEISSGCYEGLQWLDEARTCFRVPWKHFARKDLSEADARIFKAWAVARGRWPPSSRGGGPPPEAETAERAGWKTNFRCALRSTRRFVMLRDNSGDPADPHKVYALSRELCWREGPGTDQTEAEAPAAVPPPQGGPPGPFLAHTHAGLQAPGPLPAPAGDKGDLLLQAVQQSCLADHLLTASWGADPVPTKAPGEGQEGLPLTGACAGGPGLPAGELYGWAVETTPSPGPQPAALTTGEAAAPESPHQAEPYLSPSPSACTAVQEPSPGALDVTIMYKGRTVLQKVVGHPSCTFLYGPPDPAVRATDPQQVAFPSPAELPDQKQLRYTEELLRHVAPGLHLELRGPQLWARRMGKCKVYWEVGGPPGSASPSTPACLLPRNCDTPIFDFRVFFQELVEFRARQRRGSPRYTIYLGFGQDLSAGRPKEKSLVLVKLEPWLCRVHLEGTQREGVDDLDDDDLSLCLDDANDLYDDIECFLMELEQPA
Sequence = GACGAACTGAGGACTGGAGACGTGCTA; value = -0.336 z-score
Sequence = TCATTTTTCTTTAAAAGACTGTGCTAG; value = 1 z-score
Sequence = TTAGGCTTCGACACTGGGTTAGTGCTA; value = -0.264 z-score
Sequence = TTAGGCCTGGGGTATCGGTTAGTGCTA; value = -0.806 z-score
Sequence = GACGATATCAGTTTCGAGGCGTGCTAG; value = 2.88 z-score
Sequence = TTAGCACTGCTTTTCCTTTAGTGCTAG; value = 1.79 z-score
Sequence = AGAGAGAGTGAGGAACAACAGTGCTAG; value = -0.969 z-score
Sequence = TTAGGGCTCGGTATCGGTTAGTGCTAG; value = -0.288 z-score
Sequence = GCACCTCTAGACTCTAAATTCGTGCTA; value = 0.658 z-score
Sequence = GACGGTTTTCTTTCCCTGACGTGCTAG; value = 3 z-score
Sequence = TCATAACTCATTTTCATACTGTGCTAG; value = 1.79 z-score
Sequence = TTAGAACTGAGATTGGATTAGTGCTAG; value = -0.798 z-score
Sequence = TTATGTATCCTTCTCCTTTAGTGCTAG; value = 2.08 z-score
Sequence = GACGGTATCGACACTGGGGACGTGCTA; value = -0.31 z-score
Sequence = ACCCGTACTGGGTCTGGATCGTGCTAG; value = -0.28 z-score
Sequence = TTAGGTTTCCTCATCCTTTAGTGCTAG; value = 1.66 z-score
Sequence = GACGGACTGGGGACTGAGGACGTGCTA; value = -1.12 z-score
Sequence = GACGAACTGGGCACTGGAGACGTGCTA; value = -0.342 z-score
Sequence = TCACGTATATTCCCTAGAACTGTGCTA; value = 1.47 z-score

Excerpt of the above (block 1):
Sequence = TGTGTAAA; value = -0.108
Sequence = TCGAGAAA; value = -0.0433
Sequence = AGTTCTGA; value = -0.216
Sequence = TGGCCGAA; value = 0.0739
Sequence = CACCGGTC; value = 0.187
Sequence = TGAGGCAA; value = -0.187
Sequence = CTTTCGGA; value = -0.0508
Sequence = AGCTGATA; value = -0.218
